# Measurements pooled from the literature.
# Protocols differ between the studies behind these lines. ± gives the spread as reported.
SMILES,test,system,setting,MRT [h]
CO/N=C1\C[C@]2(C[C@@H]3C[C@@H](C/C=C(\C)C[C@@H](C)/C=C/C=C4\CO[C@@H]5[C@H](O)C(C)=C[C@@H](C(=O)O3)[C@]45O)O2)O[C@H](/C(C)=C/C(C)C)[C@H]1C,"HPLC, non-compartmental","Corriedale lambs, parasitized, plasma","subcutaneous, 0.2 mg/kg, added: closantel 5 mg/kg subcutaneous",120 ± 73
N#C[C@]1(CO)O[C@@H](n2cnc3c(=O)[nH]c(N)nc32)C[C@@H]1O,,"male Sprague-Dawley rat, plasma","oral, 1 mg/kg, added: entecavir 1 mg/kg",1.91 ± 0.34
CC(C)=CCC[C@](C)(O[C@@H]1O[C@H](CO)[C@@H](O)[C@H](O)[C@H]1O)[C@H]1CC[C@]2(C)[C@@H]1[C@H](O)C[C@@H]1[C@@]3(C)CC[C@H](O)C(C)(C)[C@@H]3[C@@H](O[C@@H]3O[C@H](CO)[C@@H](O)[C@H](O)[C@H]3O)C[C@]12C,,"Sprague Dawley rats, male, plasma","oral, 25 mg/kg, aqueous solution, added: co-dosed pure ginsenoside mixture",10.9 ± 5.1
O=c1c(O)c(-c2ccc(O)cc2)oc2cc(OS(=O)(=O)O)cc(O)c12,,"FVB mice, male, Mrp2^−/−, plasma","oral, 10 mg/kg of kaempferol",3.28 ± 0.217
CCN(CC)Cc1cc(Nc2ccnc3cc(Cl)ccc23)ccc1O,,"rat, Wistar, male, plasma","oral, 60 mg/kg",5.78 ± 0.7
CC(C)=CCC[C@](C)(O[C@@H]1O[C@H](CO[C@@H]2O[C@H](CO)[C@@H](O)[C@H](O)[C@H]2O)[C@@H](O)[C@H](O)[C@H]1O)[C@H]1CC[C@]2(C)[C@@H]1[C@H](O)C[C@@H]1[C@@]3(C)CC[C@H](O[C@@H]4O[C@H](CO)[C@@H](O)[C@H](O)[C@H]4O[C@@H]4O[C@H](CO)[C@@H](O)[C@H](O)[C@H]4O)C(C)(C)[C@@H]3CC[C@]12C,,"Sprague Dawley rats, male, plasma","oral, 86 mg/kg, aqueous solution, added: co-dosed pure ginsenoside mixture",11 ± 6.7
COc1ccc(/C=C\c2cc(OC)c(OC)c(OC)c2)cc1OP(=O)(O)O,,"Sprague-Dawley rat male, plasma","intravenous, 28 mg/kg",0.89 ± 0.38
COc1cccc(N2CCN(C3=Nc4c(F)cccc4[C@H](CC(=O)O)N3c3cc(C(F)(F)F)ccc3OC)CC2)c1,UHPLC-MS/MS,"healthy women, plasma","intravenous infusion, 120 mg single dose, 30 min infusion, HPβCD formulation",6.14 ± 1.84
CC(C)NC(=O)COc1cccc(-c2nc(Nc3ccc4[nH]ncc4c3)c3ccccc3n2)c1,,"male C57BL/6 mouse, brain","oral, 100 mg/kg",3.06

# Excerpt of the above:
SMILES,test,system,setting,MRT [h]
COc1cccc(N2CCN(C3=Nc4c(F)cccc4[C@H](CC(=O)O)N3c3cc(C(F)(F)F)ccc3OC)CC2)c1,UHPLC-MS/MS,"healthy women, plasma","intravenous infusion, 120 mg single dose, 30 min infusion, HPβCD formulation",6.14 ± 1.84
